Results of several laboratories.
Each numbered part is a random draw from the data of one study; scales do not carry over between parts. Substitutions count along the parent as printed.

Series 1
Target: Interferon regulatory factor 3, full length, phosphomimetic (IRF3, Homo sapiens, UniProt Q14653, residues 1-427, S386D/S396D/S398D/S402D/T404D/S405D)
Method: protein-binding microarray
Molecule type: double-stranded DNA, one strand shown
Sample: in vitro
Tested at: 2540 nM top
Notes: 60-bp whole probe
With: salmon DNA 0.4 mg/ml
Relative to: random background probes
Direction: higher = stronger binding
All sequences stand within: GCCTAGCAC … GTCTTGATTCGCTTGACGCTGCTG
Target sequence (chain): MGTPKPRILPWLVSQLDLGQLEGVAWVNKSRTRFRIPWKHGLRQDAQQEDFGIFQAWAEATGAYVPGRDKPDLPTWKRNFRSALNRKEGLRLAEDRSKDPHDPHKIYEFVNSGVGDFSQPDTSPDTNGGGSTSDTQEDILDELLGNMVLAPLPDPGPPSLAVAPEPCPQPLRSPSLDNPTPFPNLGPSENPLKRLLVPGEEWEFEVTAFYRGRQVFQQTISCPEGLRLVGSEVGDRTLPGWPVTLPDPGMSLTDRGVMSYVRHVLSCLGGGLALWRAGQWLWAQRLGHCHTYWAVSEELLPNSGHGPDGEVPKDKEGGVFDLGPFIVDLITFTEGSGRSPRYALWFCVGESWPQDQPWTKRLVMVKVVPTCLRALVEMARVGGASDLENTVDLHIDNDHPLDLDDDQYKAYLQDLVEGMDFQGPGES
| Strand | fitted relative affinity |
| --- | --- |
| TCTTTTTGCACTCTCTACATGTGCTAG | 1.72 z-score |
| TCAGTTATTAAATTTTCAACTGTGCTA | 0.399 z-score |
| TTATGTTTCGGGTTTCGGTTAGTGCTA | 5.68 z-score |
| TTAGGTTTCCTTTCCCTTTGGTGCTAG | 10.6 z-score |
| TTAGTACTGGGGTTTCGATTAGTGCTA | 1.29 z-score |
| TCATACATTTATATCTTACTGTGCTAG | 0.626 z-score |
| TTAGATATCAGTATCGACTAGTGCTAG | 1.11 z-score |
| GACGGTTTCGCACTGGGGACGTGCTAG | 3.66 z-score |
| TTAGGACTACTTCTCCTTTAGTGCTAG | 0.653 z-score |
| GTGTGCATCTATCTTAAATAGTGCTAG | 0.449 z-score |
| GACGGTTTCGGTCCCGGGACGTGCTAG | 6.33 z-score |
| GACGGACTGGGGTATCTGGACGTGCTA | -0.752 z-score |
| TACGGTATCGGGTATCGGGACGTGCTA | 1.73 z-score |
| TTAGATCTCAGACTGGATAAGTGCTAG | 0.0587 z-score |
| TTAGGACTGGACTATCCGTTAGTGCTA | -0.205 z-score |
| AACGGTTTCCTTATCCTGACGTGCTAG | 7.79 z-score |
| GACGGTCTCGGTATCGGGTCGTGCTAG | 2.15 z-score |
| GACTATTTCAGTATCGAGACGTGCTAG | 1.79 z-score |
| TTAGATATCAGTAACGATTAGTGCTAG | 0.14 z-score |
| AACGGTCTCCTTTTCCTGACGTGCTAG | 4.59 z-score |
| TGGGTTGTAGGTTTTCTGAAGGTGCTA | -0.497 z-score |
| TTAGGTATCGGCACTGGGTTAGTGCTA | 0.0751 z-score |
| GACGGACTGCTACTCCTGACGTGCTAG | -0.576 z-score |
| GACGGACTGGACTTTCGGCACGTGCTA | -0.238 z-score |
| TTAGGTAGCCTTTTCCTTTAGTGCTAG | 3.46 z-score |

Series 2
Target: RNA binding protein fox-1 homolog 2, RRM domain, GST-SBP tag (RBFOX2, Homo sapiens, UniProt O43251-10, residues 100-194)
Method: RNA Bind-n-Seq
Molecule type: RNA
Sample: in vitro
Tested at: 365 nM
Notes: natural RNA segment, single round, ends assumed
Relative to: no-protein control
Direction: higher = stronger binding
All sequences stand within: GGGAGUUCUACAGUCCGACGAUC … UGGAAUUCUCGGGUGCCAA
Construct (chain): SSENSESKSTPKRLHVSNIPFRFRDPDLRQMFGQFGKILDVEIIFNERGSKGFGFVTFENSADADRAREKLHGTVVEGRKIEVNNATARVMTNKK
| Strand | RBNS enrichment (R) |
| --- | --- |
| UAGGCCGGCCUGGCCGCACCCCUGCGCCCUCAAGCCAUGCUGCUCCUUGUAAAUACCCGCUGCUGCGGUGGCCCUGAGCGAGGAACAAGCCAUUCGGACCCGACCGAUGU | 0.273 |
| AAUCGGGUUGUCACUCAACAAAAGUGCUUUGGAUUUAAGUUACUAUCCUGGCUUUGCCCAACCUCAGCAACCUGUAAGACUGAUAAUGAAAUAAAUCAUGUUAAUCCUAG | 0.239 |
| CUAUUUGGCAAAUGACUUAAGGUUAGAUGAAGCUUCAGUCUUGAUAACUGAAUAUUCAAAGCACUGCGGGAAACCUGUGCCUCCAGACACUGCUCCCUGUGAAAUUCUGA | 0.259 |
| CUUACAUGUAAACUUGCGUGUUUGUGAAAAUGGCCCUUUAAGUAUAUUUAAUUUUUUGCCACAUAUUUAUUUAAAGGCGAGCAAUAUUUUCUUGGUCACAAUAUUUUUUA | 0.669 |
| ACUGAGGCAAAUGGUACCUCAUUGGGUUGGAGACCCUCACCGGUUACUAUUUAUUUUACCCCACACCCUAAGUUGGCAUACUUAUUCCCAGUCUUACUCCUGAUCUCUUU | 0.535 |
| AGAAAAAAUAUUUAUAAUAAAAUCAUUUGUAGGAAGAUGUUUAAGAAGUUAGGAAAUUCAGUUUGUCUCUUACUUCUUGAAAAUGGCAGGGAGCAGCUGCAGCCCCUGAC | 0.729 |
| AAGCUGUGUCGUGUUCCCUGUGGAAAUGAGUUGAUGUGUGCCAGUGCUGAGCACCUGGUAUUGAGGUACAGAGGAGGGCUCCGCCUGCAGGCACUGUGGCCGCUGAGCUG | 1.65 |
| AAAAAUGGGGCCACCUCUUGCCAGCAGUAGCAGGGCUGCCCAUGCCCCUUCCUCCCCAUGCCCCAUAUCCAGCCCUGGGCUCCUGUGCCUCUGUUUUGCUGGGUCUGUGG | 0.452 |
| GACCGUCUCCUCUACGUGACCGUAUAAUGUUUUUUCUCCUCUUGUAGUCUUUAUGGUGUGUCUUUAUGACGUAAUAAGGUUCUCACGGGUUCGAUUCCUUUGUGUUUAGA | 0.514 |
| UGAACUAUUCAUCAGUACUUUCUCCUCCCAUCCUAAGCUUCUCAUUUUAGGAACUGACAUGAUAAGGUGGUUCUUUCAUAACUCUAAUGCCAUCCAACAUAGCCCUGGGA | 0.669 |
| UCACAGCUCGGUUUUUCUUAUUUGUUGAGUGCUAUUACCAGGAGAAAUUCAAAUAAAUAUUCAAUUUAUUAUGAAUUUCAUUAUUUAUUUAUAAUAGUUUUUCUUUUAUA | 0.996 |
| GCCAUAAUCCUUCUGAAUUGUUGGCACUAAGUAAUGGGAUUUGGCCCAGUAAGUAUGACGGUCGUGUCGCCUAACCAACGCAGAGCAGUGCUUUUUGUGUGGCUGAAGCG | 0.433 |

Series 3
Target: ABI1, truncated, D143A, DHFR fusion (Arabidopsis thaliana)
Method: DHFR PCA, deep sequencing
Sample: yeast
Notes: methotrexate growth selection, single substitutions
With: (+)-ABA 2500 µM
Relative to: wild-type fitted maximum
Direction: higher = stronger binding
Starting sequence: PYL1, truncated, DHFR fusion (Arabidopsis thaliana); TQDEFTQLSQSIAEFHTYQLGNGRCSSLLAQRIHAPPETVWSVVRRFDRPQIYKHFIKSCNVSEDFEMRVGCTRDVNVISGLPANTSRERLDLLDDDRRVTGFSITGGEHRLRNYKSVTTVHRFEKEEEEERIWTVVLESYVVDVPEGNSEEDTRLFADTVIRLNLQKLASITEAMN; partner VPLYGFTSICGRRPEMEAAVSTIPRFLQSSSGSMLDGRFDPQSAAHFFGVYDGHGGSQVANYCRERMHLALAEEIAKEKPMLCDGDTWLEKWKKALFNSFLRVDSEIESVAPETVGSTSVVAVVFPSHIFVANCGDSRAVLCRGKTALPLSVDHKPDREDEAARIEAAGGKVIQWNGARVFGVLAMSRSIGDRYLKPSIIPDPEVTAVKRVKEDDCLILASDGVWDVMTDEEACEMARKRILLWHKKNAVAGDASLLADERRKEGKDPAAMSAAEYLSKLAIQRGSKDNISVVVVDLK
| Variant | relative binding score |
| --- | --- |
| V78K | -1.44% |
| E38N | 93% |
| C25Q | 86.1% |
| A35C | 100% |
| E131C | 101% |
| V137T | 73.8% |
| V161T | 77.8% |
| R98L | 107% |
| V100E | 41.1% |
| N177F | 88.5% |
| V100C | 99.2% |
| C60P | 31.7% |
| M68C | 91.8% |
| F103I | 93% |
| L93V | 104% |
| E64P | 93.1% |

Series 4
Target: Prothrombin, mature alpha-thrombin (F2, Homo sapiens, UniProt P00734)
Method: aptamer microarray, sandwich
Molecule type: DNA with 2'F-ANA
Sample: in vitro
Tested at: 200 nM
Notes: whole 15-mer aptamer, many near background
With: Cy3 exosite-II aptamer, 400 nM
Direction: higher = stronger binding
Strand: GGTTGGTGTGGTTGG
| Modification | mean fluorescence intensity |
| --- | --- |
| 2'F-ANA at 1 2 3 4 5 6 10 14 15 | 73.2 a.u. |
| 2'F-ANA at 1 2 3 6 7 10 11 12 13 14 15 | 94.2 a.u. |
| 2'F-ANA at 1 2 3 4 5 6 7 9 13 14 | 49.1 a.u. |
| 2'F-ANA at 1 2 5 6 7 11 14 | 61.5 a.u. |
| 2'F-ANA at 2 10 11 12 13 15 | 153 a.u. |
| 2'F-ANA at 3 4 8 10 11 12 15 | 274 a.u. |
| 2'F-ANA at 2 3 5 6 7 10 12 13 14 | 58.9 a.u. |
| 2'F-ANA at 2 3 5 6 11 12 13 14 15 | 59.4 a.u. |
| 2'F-ANA at 2 3 4 13 | 487 a.u. |
| 2'F-ANA at 1 5 6 7 8 9 10 13 14 15 | 66.7 a.u. |
| 2'F-ANA at 1 6 7 8 10 14 15 | 49.7 a.u. |
| 2'F-ANA at 2 3 4 8 9 12 13 14 | 296 a.u. |
| 2'F-ANA at 3 5 8 9 10 12 | 89.5 a.u. |
| 2'F-ANA at 1 11 12 14 | 77.8 a.u. |
| 2'F-ANA at 3 4 5 7 10 13 | 50.6 a.u. |
| 2'F-ANA at 1 3 4 5 6 9 14 15 | 45.1 a.u. |
| 2'F-ANA at 5 6 9 12 13 14 15 | 43.9 a.u. |

For quick reference, copied from above (series 2):
| Strand | RBNS enrichment (R) |
| --- | --- |
| UAGGCCGGCCUGGCCGCACCCCUGCGCCCUCAAGCCAUGCUGCUCCUUGUAAAUACCCGCUGCUGCGGUGGCCCUGAGCGAGGAACAAGCCAUUCGGACCCGACCGAUGU | 0.273 |
| AAUCGGGUUGUCACUCAACAAAAGUGCUUUGGAUUUAAGUUACUAUCCUGGCUUUGCCCAACCUCAGCAACCUGUAAGACUGAUAAUGAAAUAAAUCAUGUUAAUCCUAG | 0.239 |
| CUAUUUGGCAAAUGACUUAAGGUUAGAUGAAGCUUCAGUCUUGAUAACUGAAUAUUCAAAGCACUGCGGGAAACCUGUGCCUCCAGACACUGCUCCCUGUGAAAUUCUGA | 0.259 |
| CUUACAUGUAAACUUGCGUGUUUGUGAAAAUGGCCCUUUAAGUAUAUUUAAUUUUUUGCCACAUAUUUAUUUAAAGGCGAGCAAUAUUUUCUUGGUCACAAUAUUUUUUA | 0.669 |
| ACUGAGGCAAAUGGUACCUCAUUGGGUUGGAGACCCUCACCGGUUACUAUUUAUUUUACCCCACACCCUAAGUUGGCAUACUUAUUCCCAGUCUUACUCCUGAUCUCUUU | 0.535 |
| AGAAAAAAUAUUUAUAAUAAAAUCAUUUGUAGGAAGAUGUUUAAGAAGUUAGGAAAUUCAGUUUGUCUCUUACUUCUUGAAAAUGGCAGGGAGCAGCUGCAGCCCCUGAC | 0.729 |
| AAGCUGUGUCGUGUUCCCUGUGGAAAUGAGUUGAUGUGUGCCAGUGCUGAGCACCUGGUAUUGAGGUACAGAGGAGGGCUCCGCCUGCAGGCACUGUGGCCGCUGAGCUG | 1.65 |
| AAAAAUGGGGCCACCUCUUGCCAGCAGUAGCAGGGCUGCCCAUGCCCCUUCCUCCCCAUGCCCCAUAUCCAGCCCUGGGCUCCUGUGCCUCUGUUUUGCUGGGUCUGUGG | 0.452 |
| GACCGUCUCCUCUACGUGACCGUAUAAUGUUUUUUCUCCUCUUGUAGUCUUUAUGGUGUGUCUUUAUGACGUAAUAAGGUUCUCACGGGUUCGAUUCCUUUGUGUUUAGA | 0.514 |
| UGAACUAUUCAUCAGUACUUUCUCCUCCCAUCCUAAGCUUCUCAUUUUAGGAACUGACAUGAUAAGGUGGUUCUUUCAUAACUCUAAUGCCAUCCAACAUAGCCCUGGGA | 0.669 |
| UCACAGCUCGGUUUUUCUUAUUUGUUGAGUGCUAUUACCAGGAGAAAUUCAAAUAAAUAUUCAAUUUAUUAUGAAUUUCAUUAUUUAUUUAUAAUAGUUUUUCUUUUAUA | 0.996 |
